Published values collected from several papers.
Numbered parts are unrelated; each lists some results of a single study.

Block 1
Target: Ras GTPase-activating protein-binding protein 1, C-terminal RGG region (G3BP1, Homo sapiens, UniProt Q13283)
Chain of UniProt Q13283 (whole entry, looked up): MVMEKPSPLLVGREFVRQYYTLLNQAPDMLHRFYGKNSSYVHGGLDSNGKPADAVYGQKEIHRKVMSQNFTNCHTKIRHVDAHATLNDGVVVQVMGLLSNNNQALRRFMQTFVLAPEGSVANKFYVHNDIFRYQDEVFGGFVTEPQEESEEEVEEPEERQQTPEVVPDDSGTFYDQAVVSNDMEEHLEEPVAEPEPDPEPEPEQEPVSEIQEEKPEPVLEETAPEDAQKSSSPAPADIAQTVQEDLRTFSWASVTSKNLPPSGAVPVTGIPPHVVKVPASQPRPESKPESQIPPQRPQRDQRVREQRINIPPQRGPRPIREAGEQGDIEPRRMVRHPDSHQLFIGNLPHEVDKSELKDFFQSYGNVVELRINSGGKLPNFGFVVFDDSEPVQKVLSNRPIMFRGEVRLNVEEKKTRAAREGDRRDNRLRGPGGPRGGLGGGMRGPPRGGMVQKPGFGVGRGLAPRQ
Technique: RNA Bind-n-Seq
Molecule type: RNA
Matrix: in vitro
Concentration: 1 µM
Notes: whole 134-nt RNA, ends assumed
Added: 150 mM KCl
Relative to: input library
Direction: higher = stronger binding
All sequences stand within: GGGAGUUCUACAGUCCGACGAUC … UGGAAUUCUCGGGUGUCAAGG
The log2 enrichment of `GUCCUGUGCUACACAUCGUAUGUACCGAAUCAAACCCCCCCAAAUUUAAACCCCCAAAAAAGUAUUAUGUUACGCCGUUCGGAUCUGCAC` is reported as -0.327.
The log2 enrichment of `CUCAAGUCCUGUGCUACACAUCGUAUGUACCGAAUCGGGAAGGGGAAGGGAAGGAAAGUAUUAUGUUACGCCGUUCGGAUCUGCACUUCC` is reported as -0.942.
`AGUCCUGUGCUACACAUCGUAUGUACCGAAUCGGGAAAAAGGAAAAAGGGGAAAAAGGAAAGUAUUAUGUUACGCCGUUCGGAUCUGCAC` gave a log2 enrichment of -1.66.
With `AGUCCUGUGCUACACAUCGUAUGUACCGAAUCGGGAAAGGGAAAAAGGGUUUUUGGGAAAGUAUUAUGUUACGCCGUUCGGAUCUGCACU` the log2 enrichment was 0.396.
`AGUCCUGUGCUACACAUCGUAUGUACCGAAUCAAACCCCCAAAUUUAAAUUUUUAAAAAAGUAUUAUGUUACGCCGUUCGGAUCUGCACU` gave a log2 enrichment of -0.983.

Block 2
Target: Sal-like protein 4, full length isoform B (SALL4, Homo sapiens, UniProt Q9UJQ4-2, residues 1-616)
Technique: universal PBM
Molecule type: double-stranded DNA, one strand shown
Matrix: in vitro
Concentration: not given
Notes: 8-mer, flanks averaged, mean of replicates
Direction: higher = stronger binding
Construct (chain): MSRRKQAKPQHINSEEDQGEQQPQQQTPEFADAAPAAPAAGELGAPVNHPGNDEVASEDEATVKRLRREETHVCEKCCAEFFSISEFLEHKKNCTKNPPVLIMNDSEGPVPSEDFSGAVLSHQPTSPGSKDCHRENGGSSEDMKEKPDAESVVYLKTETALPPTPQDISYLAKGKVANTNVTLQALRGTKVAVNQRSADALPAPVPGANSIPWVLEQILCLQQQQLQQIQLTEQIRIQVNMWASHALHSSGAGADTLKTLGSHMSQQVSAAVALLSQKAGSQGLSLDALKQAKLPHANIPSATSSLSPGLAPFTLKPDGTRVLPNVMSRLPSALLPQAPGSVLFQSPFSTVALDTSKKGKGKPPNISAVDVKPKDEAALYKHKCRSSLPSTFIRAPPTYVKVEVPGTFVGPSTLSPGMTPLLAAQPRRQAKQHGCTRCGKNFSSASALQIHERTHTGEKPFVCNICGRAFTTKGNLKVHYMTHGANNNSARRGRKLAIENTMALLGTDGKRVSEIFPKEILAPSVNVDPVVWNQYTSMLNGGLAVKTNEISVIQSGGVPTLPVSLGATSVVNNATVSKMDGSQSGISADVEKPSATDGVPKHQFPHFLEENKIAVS
The E-score of `CTACATAG` is reported as 0.162.
The E-score of `ACACACGG` is reported as -0.279.
`CCGGCTCC` has an E-score of -0.384.
`CTCTGACC` has an E-score of -0.312.
For `ACAAGTTA`, the E-score was 0.183.
`CCCTGACA` has an E-score of -0.0751.

Block 3
Target: Centromere-binding protein 1, full length, N-terminal tag (CBF1, Saccharomyces cerevisiae, UniProt P17106, residues 1-351)
Chain of UniProt P17106 (whole entry, looked up): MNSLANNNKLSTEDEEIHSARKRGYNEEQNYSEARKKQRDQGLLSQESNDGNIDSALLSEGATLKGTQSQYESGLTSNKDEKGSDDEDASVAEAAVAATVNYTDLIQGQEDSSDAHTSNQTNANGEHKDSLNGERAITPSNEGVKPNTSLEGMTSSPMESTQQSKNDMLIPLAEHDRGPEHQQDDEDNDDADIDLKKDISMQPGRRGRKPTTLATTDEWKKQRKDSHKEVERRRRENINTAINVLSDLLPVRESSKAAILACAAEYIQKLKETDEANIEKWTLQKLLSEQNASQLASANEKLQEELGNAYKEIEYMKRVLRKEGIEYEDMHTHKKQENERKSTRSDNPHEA
Technique: protein-binding microarray
Molecule type: double-stranded DNA, one strand shown
Matrix: in vitro
Concentration: 0.8 µM
Notes: whole 60-bp probe, no competitor
Direction: higher = stronger binding
`GAAAAATGATGTACGCACGTGGGCGAAAGTTCATAGGTCTTGATTCGCTTGACGCTGCTG` gave a fluorescence intensity of 3460 a.u.
For `CTAGTAATCGTTCATGTGGCAACTGTTTCAGTATTCGTCTTGATTCGCTTGACGCTGCTG`, the fluorescence intensity was 534 a.u.
For `GAATGCTTTACTATCCACGTTCGAATATTATTTTAGGTCTTGATTCGCTTGACGCTGCTG`, the fluorescence intensity was 551 a.u.
With `CTATTGAAAATATACAACGTGGTTACATAAAGATTCGTCTTGATTCGCTTGACGCTGCTG` the fluorescence intensity was 740 a.u.

Other studies, line by line
`PhoQ, residues 284 288 289 292 302 303 SNGLAW` has a fold induction of 14.8 (PhoP, residues 12 14 15 18 19 LWHVM (Escherichia coli, UniProt P23836); Sort-seq, item: YFP reporter; E. coli; PhoQ-PhoP variant library, added: 10 µM Mg2+; relative to: high Mg2+ state, higher = stronger signaling).

Excerpt of the above (other studies, line by line):
`PhoQ, residues 284 288 289 292 302 303 SNGLAW` has a fold induction of 14.8 (PhoP, residues 12 14 15 18 19 LWHVM (Escherichia coli, UniProt P23836); Sort-seq, item: YFP reporter; E. coli; PhoQ-PhoP variant library, added: 10 µM Mg2+; relative to: high Mg2+ state, higher = stronger signaling).
